Measurements from different studies.
Parts stem from different laboratories: compare values within a part only. Changes are numbered by the printed parent chain.

Series 1 — target: CCND1, cyclin fold, Cln2 fusion (human); method: yeast growth competition, sequencing; matrix: yeast; notes: weak parent motif; relative to: not given; direction: higher = stronger binding; measurement: normalised enrichment score
Starting sequence: CDKN1B docking peptide (human); PSACRNLFGPVDH; partner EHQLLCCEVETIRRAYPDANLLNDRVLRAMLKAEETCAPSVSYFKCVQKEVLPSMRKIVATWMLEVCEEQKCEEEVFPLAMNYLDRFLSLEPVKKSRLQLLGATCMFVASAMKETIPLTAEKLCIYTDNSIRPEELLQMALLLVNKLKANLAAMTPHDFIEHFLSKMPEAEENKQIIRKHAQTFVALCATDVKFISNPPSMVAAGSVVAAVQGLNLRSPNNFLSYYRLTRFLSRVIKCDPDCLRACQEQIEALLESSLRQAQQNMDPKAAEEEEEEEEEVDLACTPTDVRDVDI
PSARRNLFGPVDH [C4R]: 0.562
PSACRNSFGPVDH [L7S]: 0.0729
PSACRNLFGPVYH [D12Y]: 0.459
PSACRNLKGPVDH [F8K]: 0.574
PSACRNLGGPVDH [F8G]: -0.112
PSACRPLFGPVDH [N6P]: 0.00104
PSACGNLFGPVDH [R5G]: 0.273
PSCCRNLFGPVDH [A3C]: 0.402
PSACRFLFGPVDH [N6F]: -0.0677
PSACRNLFGYVDH [P10Y]: 0.88
PSACRNLWGPVDH [F8W]: 0.615
PSACRNLIGPVDH [F8I]: 0.464
PSACRNLTGPVDH [F8T]: 0.173
PSACLNLFGPVDH [R5L]: 0.521
PSACRNLFGPVDP [H13P]: 0.73
PSACRNPFGPVDH [L7P]: -0.0163
PSACRYLFGPVDH [N6Y]: 0.00801
PSACRNQFGPVDH [L7Q]: -0.202
PSACRNLFGPFDH [V11F]: 0.908
PSVCRNLFGPVDH [A3V]: 0.667
PSACRNVFGPVDH [L7V]: 0.295
PRACRNLFGPVDH [S2R]: 0.635
PSACRNLFGMVDH [P10M]: 0.187
SSACRNLFGPVDH [P1S]: 1.35

Series 2 — method: competition protein-binding microarray; form: double-stranded DNA, one strand shown; matrix: in vitro; tested at: 2 µM; with: Cbf1 competitor, 0.05 µM; direction: higher = stronger binding; measurement: fluorescence intensity
Target: Phosphate system positive regulatory protein PHO4, full length, GST-tagged (PHO4, Saccharomyces cerevisiae, UniProt P07270, residues 1-312)
Notes: whole 60-bp probe, lowest competitor level
Target sequence (chain): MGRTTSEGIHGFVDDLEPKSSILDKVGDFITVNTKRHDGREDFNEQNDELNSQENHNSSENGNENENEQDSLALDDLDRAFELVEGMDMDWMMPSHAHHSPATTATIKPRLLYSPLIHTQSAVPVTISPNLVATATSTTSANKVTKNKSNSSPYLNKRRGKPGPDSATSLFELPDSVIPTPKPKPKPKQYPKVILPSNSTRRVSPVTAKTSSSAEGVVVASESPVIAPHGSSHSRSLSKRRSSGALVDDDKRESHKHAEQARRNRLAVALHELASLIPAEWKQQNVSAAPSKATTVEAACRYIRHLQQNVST
CGCATATTTCCATAGCGCGTGACGGTAAGTACAAGAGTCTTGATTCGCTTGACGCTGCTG: 8790 a.u.
TGCGCAACAACTTGACGAGTGGGTGTATGTCTAGAAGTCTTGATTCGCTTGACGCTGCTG: 4890 a.u.
CGGGGTTAAGTTTGCGATGTGGGTGGCTTGCAGCAGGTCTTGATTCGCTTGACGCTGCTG: 5020 a.u.
CTTCTGTAAATTTGTCCGGTGGGTGGACGCGCCCCGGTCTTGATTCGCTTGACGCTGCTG: 3950 a.u.
GGCAGGACGGACTTCCACGTGGAACTTAGGCATTCCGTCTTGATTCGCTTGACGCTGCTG: 15000 a.u.
AAATTACTAAGTTGTGAGGTGGGTGACGCCGTATGAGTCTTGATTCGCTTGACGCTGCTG: 4430 a.u.
CTTCTGTAAATTTGGCACGTGGGTGGACGCGCCCCGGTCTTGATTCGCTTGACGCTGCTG: 19600 a.u.
CAGATCGATTTGATATACGTGGTGAAGCAAAAAGCGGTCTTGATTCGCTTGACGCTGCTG: 5450 a.u.
TATTATATTCTCCATCACGTTATTGAATATTTCGTTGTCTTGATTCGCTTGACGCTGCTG: 9090 a.u.
CTTCTGTAAATTTTTCACGTGGATTGACGCGCCCCGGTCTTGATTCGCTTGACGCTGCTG: 11500 a.u.
TTTAGTCGATACCAACACGTGGAACAATACTCAAATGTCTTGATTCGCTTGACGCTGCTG: 19800 a.u.
CGGGGTTAAGTTTGTATGGTGGGTGGCTTGCAGCAGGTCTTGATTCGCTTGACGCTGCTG: 4720 a.u.
CGGGGTTAAGTTTTTCACGTGATGTGCTTGCAGCAGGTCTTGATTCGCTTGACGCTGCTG: 11700 a.u.
TGCAGGGAGAGGTCACACGAGGACGCAGGGATGCTGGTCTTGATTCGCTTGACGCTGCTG: 10600 a.u.
AAAGGCCACAAGTTGCGCATGCCTTTTTGCAATGTTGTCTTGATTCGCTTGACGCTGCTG: 8460 a.u.
CAGGGATCAGGGCACCACGTGGGGGAAGGACTGTGTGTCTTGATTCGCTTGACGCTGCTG: 20900 a.u.
CATACCCAACCTTGTGCCGTGGGTGAAGATATTTGTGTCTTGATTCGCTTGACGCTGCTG: 7420 a.u.
TCTTTCTGAATTTAGCACGCTTGGCACCGGTAGCGGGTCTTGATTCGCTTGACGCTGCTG: 7080 a.u.
CTAACGAAGGTTTGCTCAGTGGGTGACAAGCCAAGTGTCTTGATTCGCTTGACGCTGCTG: 3440 a.u.
CTTTCCCGATCTTGTCACAATACTTTAGCACATTTGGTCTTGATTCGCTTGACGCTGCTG: 4610 a.u.
AAAGCGGTAATTTTTCACGTGGCATCACATATCTATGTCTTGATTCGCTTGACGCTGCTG: 14000 a.u.
AAAGCGGTAATTTTTCACGTGCGATCAAATATCTATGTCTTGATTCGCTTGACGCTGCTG: 13900 a.u.
AAATTACTAAGTTGTGTAGTGGGTGACGCCGTATGAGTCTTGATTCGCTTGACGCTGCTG: 4130 a.u.
CCCTTGTCATTTTCCCAGGTGACGCTGAATTGTATGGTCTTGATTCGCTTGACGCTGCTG: 5260 a.u.
CGTCCTAGTGATTTTCACGTGTCATCCATGAGGAAGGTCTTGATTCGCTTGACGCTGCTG: 14400 a.u.

Series 3 — method: RNA Bind-n-Seq; form: RNA; matrix: in vitro; tested at: 365 nM; relative to: no-protein control; direction: higher = stronger binding; measurement: RBNS enrichment (R)
Target: RNA binding protein fox-1 homolog 2, RRM domain, GST-SBP tag (RBFOX2, Homo sapiens, UniProt O43251-10, residues 100-194)
Notes: natural RNA segment, single round, ends assumed
Target sequence (chain): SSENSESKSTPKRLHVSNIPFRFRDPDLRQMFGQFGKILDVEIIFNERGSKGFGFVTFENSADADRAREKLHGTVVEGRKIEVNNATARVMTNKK
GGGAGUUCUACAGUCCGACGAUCCUUGUCCUCAGAAGGAACCUGCUCCUCUUGAGUGGCACCUGGGAUUUUCUCCUCCCAGUAAAUCUCAGUGAUGAUGUCAUGGUGAUUGAGUAGGAUGAGGCCUGUAUUACUGGAAUUCUCGGGUGCCAA: 0.411
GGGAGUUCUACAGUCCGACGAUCAAAACUCAGAAGAGAUAGUAAUGCUCAGGACAGGAGCGGCAGCCCCAGAACAGGCCACUCAUUUAGAAUUCUAGUGUUUCAAAACACUUUUGUGUGUUGUAUGGUCAAUAUGGAAUUCUCGGGUGCCAA: 0.557
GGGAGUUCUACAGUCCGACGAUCUUGUGACAGCAUCUUCACCACUUUGGGGACCAUCCAGAGUGGGGGAGUGGGGGAGACUUCACCCUGGAGCCAAAGGCUACACCGUACGUGUAGUCCCAGAGCCCGUCACAUGGAAUUCUCGGGUGCCAA: 0.298
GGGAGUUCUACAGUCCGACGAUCUAGUAACAAUGCUGCAUCUAGAUUGGAGUGCUGCACAAACAAACAUAAGAGCAAAGCAAAACUGUAUCACAUAGGGUUUUUGGUCACUCACAACCUGAAUUCACCACAGCUGGAAUUCUCGGGUGCCAA: 0.678
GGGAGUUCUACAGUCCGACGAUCUUAUCUGUAGAGUACCGGAUAGUGUUUGCUUUUUCCUCCCAAGCUGACAGAAGCUGGGCAUCAGUGAUCUGUUGUGUUGGAUUAAUAGGUCCUUCCCCAAAUGGGACCUGUGGAAUUCUCGGGUGCCAA: 0.484
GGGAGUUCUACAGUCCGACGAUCCCAGAGGUCCCAGCAGUCACACUGCUCUGCAGGCCGGGCUCUCUUUAUAGCCAGAGAAAUCACCUUAAUGCAGUCUCUUUAGUUGUCUGCUGAAGCUGUAGUUAUUAUGGUGGAAUUCUCGGGUGCCAA: 0.225
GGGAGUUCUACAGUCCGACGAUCUGGACUUGUAUAGUGAGAGAGGAGGCCUGGACCGAGAUGUGAGUCCUGUUGAAGACUUCCUCUCUACCCCCCACCUUGGUCCCUCUCAGAUACCCAGUGGAAUUCCAACUUGGAAUUCUCGGGUGCCAA: 0.216
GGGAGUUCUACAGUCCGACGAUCAAGUAUGCUUUCUCCUGAAAACUUUAGCAUUGGGUGCAAAUAUUCAGUAUGGUUCUCGGAGUCCAAAGGGUUUUAAGCCAGGGCACAACCAGAAAAGUGGCUCUCUUUGGUGGAAUUCUCGGGUGCCAA: 0.738
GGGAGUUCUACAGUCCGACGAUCGGCGUAGCAUCAUAGUAGUUUUUACAGCUGUGUUAUUCUUUGCGUGUAGCUAUGGAAGUUGCAUAAUUAUUAUUAUUAUUAUUAUAACAAGUGUGUCUUACGUGCCACCAUGGAAUUCUCGGGUGCCAA: 0.585
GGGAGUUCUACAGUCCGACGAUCGCCAGUGUGGGGAAGAGAUACAGUAUGUUGGACAGAUAAAAACAUGUGUUAUUUCUUGGUCAAUUUUCUAUUCAUAUUCCUUAUUUUGGCCAGUUCUUUUGUUUGUGCUUUGGAAUUCUCGGGUGCCAA: 0.325
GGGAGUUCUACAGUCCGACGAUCUUCUGUUUCUGAGGACUUUUAGCAAGAGACAGAAAAUCCUGCCAUUCUGGUUGGAAAUUAUAUAAACCAACAUGACAAUAACUGUUUCCCCCCAAAAGGCUCAGGAGCUGUGGAAUUCUCGGGUGCCAA: 0.376
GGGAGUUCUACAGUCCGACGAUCCCCUGGAUAUCCCCUGUCUUAGUGGGUCUGCCAAGGUCUUGUCAGUCUUUUUCUGGUUUUGCUCAAGUUGAAGAAUGCGUGGAGAGUCUUCUGGUGAGACAUCCUCUGUCUGGAAUUCUCGGGUGCCAA: 0.545

Series 4 — method: protein-binding microarray; form: double-stranded DNA, one strand shown; matrix: in vitro; tested at: not given; direction: higher = stronger binding; measurement: E-score
Target: Transcription factor SOX-2, HMG box (SOX2, Homo sapiens, UniProt P48431, residues 19-118)
Chain of UniProt P48431 (19-118, looked up): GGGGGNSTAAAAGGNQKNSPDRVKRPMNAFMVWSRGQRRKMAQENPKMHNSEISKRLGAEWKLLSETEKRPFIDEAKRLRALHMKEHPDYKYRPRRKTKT
Notes: k-mer, scored over probes, only values ≥0.25
CAATGGA: 0.347
AACACAA: 0.306
GAATTCA: 0.411
TAATGAA: 0.286
CAAATTC: 0.268
CTATTAA: 0.289
ACAATAA: 0.452
AATTTGC: 0.267
CTGATTA: 0.317
ATTGTCG: 0.407
AGAATAT: 0.278
AATTAAC: 0.306
ACAAATG: 0.268
CCTATTC: 0.271
ATTGATG: 0.347
AATTAAT: 0.392

Excerpt of the above (series 1):
PSACRNLFGPFDH [V11F]: 0.908
PSACRNLIGPVDH [F8I]: 0.464
PSACRNLFGYVDH [P10Y]: 0.88
PSACRNLWGPVDH [F8W]: 0.615
PSACRNLGGPVDH [F8G]: -0.112
PSACRFLFGPVDH [N6F]: -0.0677
PSACRNVFGPVDH [L7V]: 0.295
PSCCRNLFGPVDH [A3C]: 0.402
PSACRYLFGPVDH [N6Y]: 0.00801
PSACRNLTGPVDH [F8T]: 0.173
